# Published values of several laboratories.
# Numbered parts are unrelated; each lists some results of a single study.

# Block 1
# Target: Histone acetyltransferase KAT6A, winged helix 2, GST fusion (KAT6A, Homo sapiens, UniProt Q92794, residues 85-181)
# Method: protein binding microarray
# Form: double-stranded DNA, one strand shown
# Sample: in vitro
# Tested at: not given
# Notes: 8-mer, flanks averaged, mean of 2 arrays, mostly near background
# Relative to: not given
# Reading: higher = stronger binding
# Residues (chain): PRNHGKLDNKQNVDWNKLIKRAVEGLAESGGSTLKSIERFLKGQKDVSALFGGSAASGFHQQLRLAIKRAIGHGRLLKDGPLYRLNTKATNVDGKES
Strand,E-score
ATCGATGG,-0.0648
CGTCGTCC,-0.0548
ATCTACGA,-0.122
CTCTAATA,-0.0138
CCTTAAAC,0.056
GAGACAGC,0.0167
ATAGCGCG,0.101
ACGTCTCT,-0.108
AAGGCTGA,-0.0548
CCCACTCC,-0.0535
CAGGTGGG,0.0779
GTGCTAAC,0.0122
GCCCCGAA,0.158
GGCTTATA,-0.0533
ACGTGTAT,-0.207
CGATTCAA,-0.105

# Block 2
# Target: Sal-like protein 4, full length isoform A (SALL4, Homo sapiens, UniProt Q9UJQ4, residues 1-1053)
# UniProt Q9UJQ4, sequence (whole entry, looked up): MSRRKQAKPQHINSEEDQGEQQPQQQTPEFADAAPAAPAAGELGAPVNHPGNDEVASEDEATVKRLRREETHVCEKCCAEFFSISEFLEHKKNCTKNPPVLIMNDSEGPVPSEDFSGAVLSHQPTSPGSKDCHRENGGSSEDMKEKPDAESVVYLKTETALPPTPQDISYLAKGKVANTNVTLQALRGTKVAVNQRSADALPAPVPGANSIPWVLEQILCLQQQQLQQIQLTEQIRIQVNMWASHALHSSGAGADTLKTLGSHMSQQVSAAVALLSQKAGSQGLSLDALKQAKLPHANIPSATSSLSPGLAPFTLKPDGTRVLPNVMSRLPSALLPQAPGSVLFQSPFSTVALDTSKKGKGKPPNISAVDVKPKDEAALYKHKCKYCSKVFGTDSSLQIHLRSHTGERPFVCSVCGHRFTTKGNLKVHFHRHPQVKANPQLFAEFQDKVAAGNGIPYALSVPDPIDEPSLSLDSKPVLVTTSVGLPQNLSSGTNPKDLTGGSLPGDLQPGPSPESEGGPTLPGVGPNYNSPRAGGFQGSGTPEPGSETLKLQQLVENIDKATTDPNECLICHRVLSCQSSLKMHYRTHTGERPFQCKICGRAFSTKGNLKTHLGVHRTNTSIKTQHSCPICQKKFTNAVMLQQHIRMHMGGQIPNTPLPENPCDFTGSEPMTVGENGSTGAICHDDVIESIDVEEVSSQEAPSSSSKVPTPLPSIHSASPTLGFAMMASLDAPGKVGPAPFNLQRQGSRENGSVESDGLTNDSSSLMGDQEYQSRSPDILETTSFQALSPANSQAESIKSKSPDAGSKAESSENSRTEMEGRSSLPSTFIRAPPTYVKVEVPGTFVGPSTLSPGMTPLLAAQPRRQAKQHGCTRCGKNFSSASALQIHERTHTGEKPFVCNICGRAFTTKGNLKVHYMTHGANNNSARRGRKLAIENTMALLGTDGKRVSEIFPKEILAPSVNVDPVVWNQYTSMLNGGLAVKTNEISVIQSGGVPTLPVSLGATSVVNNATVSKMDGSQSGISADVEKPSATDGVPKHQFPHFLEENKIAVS
# Method: universal PBM
# Form: double-stranded DNA, one strand shown
# Sample: in vitro
# Tested at: 600 nM
# Notes: 8-mer, flanks averaged, mean of replicates
# Reading: higher = stronger binding
Strand,E-score
AACGTTTC,0.144
ATTGTTTA,0.353
ACCACTGG,-0.0737
TCACTAGA,0.182
CTACCCCC,-0.224
AGGATTTC,-0.0262
AAGTATTG,0.22
AATAGACA,0.0647
AGTTCTAC,0.0444

# Block 3
# Target: Interferon regulatory factor 5, full length, phosphomimetic (IRF5, Homo sapiens, UniProt Q13568-2, residues 1-514, K96S/S451D/S453D/S456D/S462D)
# Method: protein-binding microarray
# Form: double-stranded DNA, one strand shown
# Sample: in vitro
# Tested at: 250 nM
# Notes: 60-bp whole probe
# With: salmon DNA 0.4 mg/ml
# Relative to: random background probes
# Reading: higher = stronger binding
Strand,log fluorescence
GCCTAGCACTTGGGTCTCGGTTTCGGTTAGTGCTAGGTCTTGATTCGCTTGACGCTGCTG,8.81 z-score
GCCTAGCACATCTTAATAAGGTTTCCAATCGTGCTAGTCTTGATTCGCTTGACGCTGCTG,0.215 z-score
GCCTAGCACTTAGGACTGGGGATCGGTTAGTGCTAGGTCTTGATTCGCTTGACGCTGCTG,-0.0635 z-score
GCCTAGCACTTGTTTTTCATTATTGTCTTGTGCTAGGTCTTGATTCGCTTGACGCTGCTG,2.7 z-score

# Block 4
# Target: PABPC1L2, full length, GST fusion (mouse, UniProt A0ABA7IW68)
# Method: RNAcompete
# Form: RNA
# Sample: in vitro
# Tested at: 20 nM
# Notes: 7-mer, probes averaged, single round
# Relative to: mean of 7-mers
# Reading: higher = stronger binding
# Residues (chain): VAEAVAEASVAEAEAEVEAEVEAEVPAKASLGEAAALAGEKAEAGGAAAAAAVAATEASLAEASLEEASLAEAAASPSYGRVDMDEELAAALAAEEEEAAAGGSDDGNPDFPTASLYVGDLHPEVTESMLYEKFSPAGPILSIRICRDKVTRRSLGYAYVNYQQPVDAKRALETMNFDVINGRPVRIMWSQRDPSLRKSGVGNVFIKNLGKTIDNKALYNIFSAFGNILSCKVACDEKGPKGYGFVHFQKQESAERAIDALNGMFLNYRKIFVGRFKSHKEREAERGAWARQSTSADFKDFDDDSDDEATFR
Strand,7-mer Z-score
GUCCCAU,-0.394
UCGAUGA,-0.0663
AGACUUA,-0.106
UAAUGGC,-0.229
UGCGAAC,0.0189
CCUCUGG,-0.421

# Mixed results
Substance,target,test,system,conditions,how to read,endpoint,result
"PhoQ, residues 284 288 289 292 302 303 SSCLAV","PhoP, residues 12 14 15 18 19 LWHSL (Escherichia coli, UniProt P23836)","Sort-seq, refers to: YFP reporter",E. coli,"PhoQ-PhoP variant library, with: 10 µM Mg2+","relative to: high Mg2+ state, higher = stronger signaling",fold induction,18.6

# Excerpt of the above (block 2):
Strand,E-score
CTACCCCC,-0.224
AGGATTTC,-0.0262
AAGTATTG,0.22
AATAGACA,0.0647
AGTTCTAC,0.0444
